Published values of several laboratories.
Numbered parts are unrelated; each lists some results of a single study. “And” joins repeats or separate records; there may be more than shown. Positions count from the first letter of the parent shown.

Block 1
Target: Sal-like protein 4, full length isoform B (SALL4, Homo sapiens, UniProt Q9UJQ4-2, residues 1-616)
Technique: universal PBM
Form: double-stranded DNA, one strand shown
Sample: in vitro
Tested at: not given
Notes: 8-mer, flanks averaged, mean of replicates
Direction: higher = stronger binding
Quantity: E-score
Construct (chain): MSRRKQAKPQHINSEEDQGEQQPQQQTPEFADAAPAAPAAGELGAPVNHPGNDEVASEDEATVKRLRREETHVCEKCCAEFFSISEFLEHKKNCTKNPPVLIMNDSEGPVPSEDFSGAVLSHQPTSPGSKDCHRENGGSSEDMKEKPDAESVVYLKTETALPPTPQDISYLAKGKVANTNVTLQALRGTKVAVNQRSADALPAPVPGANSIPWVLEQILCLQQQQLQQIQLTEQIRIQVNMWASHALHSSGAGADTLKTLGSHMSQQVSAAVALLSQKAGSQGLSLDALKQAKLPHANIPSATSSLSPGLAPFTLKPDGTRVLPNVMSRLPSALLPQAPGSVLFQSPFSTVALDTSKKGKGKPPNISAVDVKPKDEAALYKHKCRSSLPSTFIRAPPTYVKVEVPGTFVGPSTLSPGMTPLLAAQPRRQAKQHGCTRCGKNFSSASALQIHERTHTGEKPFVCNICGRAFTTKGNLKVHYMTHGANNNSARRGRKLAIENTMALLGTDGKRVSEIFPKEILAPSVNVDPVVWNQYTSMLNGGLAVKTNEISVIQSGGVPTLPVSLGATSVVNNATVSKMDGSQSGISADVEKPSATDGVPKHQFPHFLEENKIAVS
CTACGAAG: -0.151
AACCCAAT: 0.11
AACGATTC: 0.161
GGCTCCAC: -0.316
AGTAATAC: 0.189
GTAAGTAC: 0.13
GAAGGCTC: -0.194
TGGGTAAA: -0.0678
ACCATGCG: -0.157

Block 2
Target: CCNB1, cyclin fold, Cln2 fusion (human)
Technique: yeast growth competition, sequencing
Sample: yeast
Notes: weak parent motif
Relative to: not given
Direction: higher = stronger binding
Quantity: normalised enrichment score
Starting sequence: CDKN1B docking peptide (human); PSACRNLFGPVDH
S2E: 0.281
G9D: 0.643
H13L: -0.0371
H13P: 0.787
V11S: 0.198
F8N: 0.256
H13C: -0.0373

Block 3
Target: CRIPT, C-terminal peptide
Technique: DHFR complementation, deep sequencing
Sample: yeast
Notes: single substitutions, model-inferred values
Relative to: wild type
Direction: higher = weaker binding
Quantity: binding free energy change
Starting sequence: ERBIN, PDZ domain 1 (human); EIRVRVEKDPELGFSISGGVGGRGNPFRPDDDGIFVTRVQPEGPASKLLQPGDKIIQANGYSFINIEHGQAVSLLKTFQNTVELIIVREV; partner TKNYKQTSV
F35Y: 0.169 kcal/mol
V4H: 0.835 kcal/mol
N25L: 1.04 kcal/mol
D31P: 1.44 kcal/mol
R5N: 0.134 kcal/mol
N59T: 1.3 kcal/mol
G19S: 1.31 kcal/mol

Mixed results
PhoQ, residues 284 288 289 292 302 303 SMMNNA — fold induction (PhoP, residues 12 14 15 18 19 LWHCS (Escherichia coli, UniProt P23836); Sort-seq, measured: YFP reporter; E. coli; PhoQ-PhoP variant library, with: 10 µM Mg2+; relative to: high Mg2+ state, higher = stronger signaling): 17.3 and 7.02
